Assay results from different studies.
Each line is one published result; not all experiments were run side by side. ± marks the error that the study gave.
Adhesin FmlH lectin domain: Adhesin FmlH, lectin domain (Escherichia coli, UniProt Q1RBS0)
mrcB: Penicillin-binding protein 1B (mrcB, Escherichia coli K-12, UniProt P02919)
Chain of UniProt P02919 (whole entry, looked up): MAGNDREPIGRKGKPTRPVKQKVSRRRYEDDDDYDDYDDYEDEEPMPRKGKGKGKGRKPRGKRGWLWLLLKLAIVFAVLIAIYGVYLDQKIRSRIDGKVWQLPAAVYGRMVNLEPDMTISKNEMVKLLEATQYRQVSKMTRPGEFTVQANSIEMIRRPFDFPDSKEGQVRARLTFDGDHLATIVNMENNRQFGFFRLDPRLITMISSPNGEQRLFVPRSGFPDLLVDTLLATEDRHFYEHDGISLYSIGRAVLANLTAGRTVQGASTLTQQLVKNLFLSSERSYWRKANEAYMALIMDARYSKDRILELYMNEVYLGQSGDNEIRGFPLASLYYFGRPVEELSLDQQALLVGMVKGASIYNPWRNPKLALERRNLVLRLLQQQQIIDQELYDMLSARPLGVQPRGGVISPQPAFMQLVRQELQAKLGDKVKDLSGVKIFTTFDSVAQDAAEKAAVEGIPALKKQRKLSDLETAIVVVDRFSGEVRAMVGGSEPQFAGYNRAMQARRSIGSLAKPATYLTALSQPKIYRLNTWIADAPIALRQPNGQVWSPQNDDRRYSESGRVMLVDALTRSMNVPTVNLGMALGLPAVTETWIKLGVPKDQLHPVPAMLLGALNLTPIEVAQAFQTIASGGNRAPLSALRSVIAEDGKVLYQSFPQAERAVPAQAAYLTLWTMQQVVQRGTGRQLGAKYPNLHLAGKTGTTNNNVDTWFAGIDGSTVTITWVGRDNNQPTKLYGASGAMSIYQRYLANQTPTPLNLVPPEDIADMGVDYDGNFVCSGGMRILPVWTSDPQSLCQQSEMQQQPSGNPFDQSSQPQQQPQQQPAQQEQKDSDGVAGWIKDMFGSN
CDK6 with cyclin D3: Cyclin-dependent kinase 6, with cyclin D3 (CDK6, Homo sapiens, UniProt Q00534)
Chain of UniProt Q00534 (whole entry, looked up): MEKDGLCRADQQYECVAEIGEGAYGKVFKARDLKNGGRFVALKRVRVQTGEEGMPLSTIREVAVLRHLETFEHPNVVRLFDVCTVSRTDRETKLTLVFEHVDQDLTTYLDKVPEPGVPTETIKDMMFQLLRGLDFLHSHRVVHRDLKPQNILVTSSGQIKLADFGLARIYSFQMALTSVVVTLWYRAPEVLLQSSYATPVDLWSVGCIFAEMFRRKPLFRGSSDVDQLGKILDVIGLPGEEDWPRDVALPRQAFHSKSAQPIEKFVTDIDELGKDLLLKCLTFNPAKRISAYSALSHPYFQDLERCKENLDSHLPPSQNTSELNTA
Chain of UniProt Q00535 (whole entry, looked up): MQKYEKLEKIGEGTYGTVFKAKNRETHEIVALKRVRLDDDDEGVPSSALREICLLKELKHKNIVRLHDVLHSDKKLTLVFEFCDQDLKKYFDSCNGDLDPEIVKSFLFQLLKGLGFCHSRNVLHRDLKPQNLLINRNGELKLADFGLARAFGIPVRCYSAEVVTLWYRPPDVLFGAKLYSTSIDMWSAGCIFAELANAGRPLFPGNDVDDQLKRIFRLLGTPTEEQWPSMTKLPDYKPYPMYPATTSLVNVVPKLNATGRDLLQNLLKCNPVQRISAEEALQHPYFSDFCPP
Chain of UniProt Q9HB21 (whole entry, looked up): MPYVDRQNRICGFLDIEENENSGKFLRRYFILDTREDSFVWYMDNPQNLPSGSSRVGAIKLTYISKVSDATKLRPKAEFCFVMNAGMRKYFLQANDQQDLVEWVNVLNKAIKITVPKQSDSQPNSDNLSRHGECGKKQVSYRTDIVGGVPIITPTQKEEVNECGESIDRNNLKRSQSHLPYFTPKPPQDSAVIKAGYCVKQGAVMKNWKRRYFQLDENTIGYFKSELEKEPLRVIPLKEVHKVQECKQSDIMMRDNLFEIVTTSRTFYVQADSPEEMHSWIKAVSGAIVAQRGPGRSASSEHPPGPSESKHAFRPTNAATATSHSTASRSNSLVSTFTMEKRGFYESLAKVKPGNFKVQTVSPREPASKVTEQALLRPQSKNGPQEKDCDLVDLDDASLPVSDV
Chain of UniProt Q02156 (whole entry, looked up): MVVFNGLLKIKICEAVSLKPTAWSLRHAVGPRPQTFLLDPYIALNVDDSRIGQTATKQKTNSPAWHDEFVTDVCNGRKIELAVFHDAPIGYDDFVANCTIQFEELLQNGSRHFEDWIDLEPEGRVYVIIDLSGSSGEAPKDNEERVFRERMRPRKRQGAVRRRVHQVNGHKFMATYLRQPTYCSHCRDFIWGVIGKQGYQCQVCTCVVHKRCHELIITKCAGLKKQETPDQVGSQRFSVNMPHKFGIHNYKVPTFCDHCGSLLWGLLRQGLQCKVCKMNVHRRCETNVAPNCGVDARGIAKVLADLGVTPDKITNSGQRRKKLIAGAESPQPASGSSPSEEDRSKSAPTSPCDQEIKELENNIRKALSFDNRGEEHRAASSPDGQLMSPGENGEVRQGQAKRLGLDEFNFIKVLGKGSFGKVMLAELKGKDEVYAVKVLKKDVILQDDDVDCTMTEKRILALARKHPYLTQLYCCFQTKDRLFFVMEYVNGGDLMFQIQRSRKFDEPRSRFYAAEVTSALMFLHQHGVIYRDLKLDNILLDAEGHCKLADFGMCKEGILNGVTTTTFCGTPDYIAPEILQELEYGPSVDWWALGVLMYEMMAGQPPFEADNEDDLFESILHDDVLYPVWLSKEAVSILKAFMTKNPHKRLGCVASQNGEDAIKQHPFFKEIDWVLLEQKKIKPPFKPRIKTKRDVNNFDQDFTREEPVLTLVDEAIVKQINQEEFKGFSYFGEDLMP
Chain of UniProt O89000 (whole entry, looked up): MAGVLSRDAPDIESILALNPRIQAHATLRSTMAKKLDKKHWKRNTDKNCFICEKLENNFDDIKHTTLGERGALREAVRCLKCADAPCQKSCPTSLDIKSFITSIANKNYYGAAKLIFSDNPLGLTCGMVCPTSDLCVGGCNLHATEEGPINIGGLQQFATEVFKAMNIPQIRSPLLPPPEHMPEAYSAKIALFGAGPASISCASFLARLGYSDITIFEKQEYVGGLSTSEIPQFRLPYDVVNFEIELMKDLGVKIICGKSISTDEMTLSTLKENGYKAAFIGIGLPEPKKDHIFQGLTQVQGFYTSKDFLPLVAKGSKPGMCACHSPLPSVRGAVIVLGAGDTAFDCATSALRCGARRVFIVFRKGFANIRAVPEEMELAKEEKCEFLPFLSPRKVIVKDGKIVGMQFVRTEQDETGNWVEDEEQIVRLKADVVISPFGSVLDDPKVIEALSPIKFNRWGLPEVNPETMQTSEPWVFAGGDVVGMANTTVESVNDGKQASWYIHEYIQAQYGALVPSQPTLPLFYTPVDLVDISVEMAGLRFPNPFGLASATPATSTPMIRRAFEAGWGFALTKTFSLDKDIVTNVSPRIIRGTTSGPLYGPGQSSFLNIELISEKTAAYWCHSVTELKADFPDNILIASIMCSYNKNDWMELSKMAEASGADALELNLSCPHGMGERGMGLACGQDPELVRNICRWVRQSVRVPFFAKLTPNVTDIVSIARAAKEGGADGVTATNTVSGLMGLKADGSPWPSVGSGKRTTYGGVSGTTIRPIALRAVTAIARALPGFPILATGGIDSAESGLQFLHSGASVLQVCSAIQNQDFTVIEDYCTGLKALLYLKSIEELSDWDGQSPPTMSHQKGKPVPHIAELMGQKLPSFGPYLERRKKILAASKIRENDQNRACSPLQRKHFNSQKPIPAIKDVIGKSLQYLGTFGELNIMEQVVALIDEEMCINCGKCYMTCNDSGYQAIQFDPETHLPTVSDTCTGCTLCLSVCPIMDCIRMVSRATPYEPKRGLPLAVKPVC
Chain of UniProt P12821 (whole entry, looked up): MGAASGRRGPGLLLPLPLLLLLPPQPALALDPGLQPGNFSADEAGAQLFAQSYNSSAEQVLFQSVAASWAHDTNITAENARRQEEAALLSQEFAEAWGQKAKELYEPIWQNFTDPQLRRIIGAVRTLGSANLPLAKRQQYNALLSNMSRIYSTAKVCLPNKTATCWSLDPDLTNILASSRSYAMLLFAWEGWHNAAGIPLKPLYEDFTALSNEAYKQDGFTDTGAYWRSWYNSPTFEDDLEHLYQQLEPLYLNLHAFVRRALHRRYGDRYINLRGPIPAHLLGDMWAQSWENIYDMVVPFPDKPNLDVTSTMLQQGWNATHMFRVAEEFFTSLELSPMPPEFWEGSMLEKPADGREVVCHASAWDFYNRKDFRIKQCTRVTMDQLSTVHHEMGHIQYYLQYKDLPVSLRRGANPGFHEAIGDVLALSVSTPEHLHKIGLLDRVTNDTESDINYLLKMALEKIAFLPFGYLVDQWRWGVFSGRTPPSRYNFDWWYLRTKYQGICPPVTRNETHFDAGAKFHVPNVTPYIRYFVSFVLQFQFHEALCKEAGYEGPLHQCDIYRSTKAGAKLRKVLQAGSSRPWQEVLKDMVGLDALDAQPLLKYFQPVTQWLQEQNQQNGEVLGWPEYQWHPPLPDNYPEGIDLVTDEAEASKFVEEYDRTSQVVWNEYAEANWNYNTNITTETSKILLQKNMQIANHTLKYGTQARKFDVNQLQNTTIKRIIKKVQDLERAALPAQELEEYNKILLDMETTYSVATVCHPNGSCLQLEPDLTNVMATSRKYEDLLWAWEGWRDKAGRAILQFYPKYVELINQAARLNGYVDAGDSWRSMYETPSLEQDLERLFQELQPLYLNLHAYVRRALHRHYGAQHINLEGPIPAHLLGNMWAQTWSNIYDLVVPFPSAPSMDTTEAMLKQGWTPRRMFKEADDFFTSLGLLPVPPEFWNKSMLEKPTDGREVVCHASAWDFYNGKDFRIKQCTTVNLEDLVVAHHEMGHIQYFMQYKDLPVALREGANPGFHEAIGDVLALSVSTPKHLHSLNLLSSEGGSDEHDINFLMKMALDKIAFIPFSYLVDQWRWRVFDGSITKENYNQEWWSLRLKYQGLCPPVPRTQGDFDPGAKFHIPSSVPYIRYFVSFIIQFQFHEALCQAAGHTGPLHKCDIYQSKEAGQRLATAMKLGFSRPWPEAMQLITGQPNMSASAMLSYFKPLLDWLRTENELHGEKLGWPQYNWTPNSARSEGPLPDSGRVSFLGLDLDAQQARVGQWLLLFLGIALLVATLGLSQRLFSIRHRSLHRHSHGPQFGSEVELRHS

SMILES	target	assay	system	setting	inhibition
CC1(C)SC(C(CCc2ccccc2)B(O)O)N[C@H]1C(=O)O (some centres unmarked)	D-alanyl-D-alanine carboxypeptidase (Streptomyces sp., UniProt P15555)	enzyme activity, inhibitor	–	concentration not given	no inhibition
Cc1c(C)c2ccc(O[C@@H]3O[C@H](CO)[C@H](O)[C@H](O)[C@H]3O)cc2oc1=O	Adhesin FmlH lectin domain	binding to desialylated mucin, ELISA competition	UPEC UTI89	100 µM	89%
CCCCCCCCCCCCCCN1C(=O)/C(=N\NC(=N)N)c2cc(C)ccc21	mrcB	enzyme activity, inhibitor, HPLC	–	50 µM	100%
O=[N+]([O-])c1ccc(S[C@@H]2O[C@H](CO)[C@H](O)[C@H](O)[C@H]2O)cc1	Adhesin FmlH lectin domain	binding to desialylated mucin, ELISA competition	UPEC UTI89	100 µM	72%
CC(C)=CCN=C(N)NCCC[C@@H](NC(=O)CCCc1ccc(O)cc1)C(=O)N[C@@H](Cc1ccccc1)C(O)CC(=O)N[C@@H](Cc1ccc(O)cc1)C(=O)O (stereo in doubt)	elastase	enzyme activity	–	up to 100 µM	no inhibition
O=C(Nc1cccc(C(=O)Nc2ccc(S(=O)(=O)O)c3cc(S(=O)(=O)O)cc(S(=O)(=O)O)c23)c1)Nc1cccc(C(=O)Nc2ccc(S(=O)(=O)O)c3cc(S(=O)(=O)O)cc(S(=O)(=O)O)c23)c1	Genome polyprotein, NS3 helicase domain (Hepatitis C virus genotype 1b, UniProt Q9WMX2)	DNA binding, fluorescence polarization	–	100 µM, added: Cy5-dT15 DNA	> 60%
COC(=O)c1cccc(-c2ccccc2O[C@@H]2O[C@H](CO)[C@H](O)[C@H](O)[C@H]2O)c1	Adhesin FmlH lectin domain	binding to desialylated mucin, ELISA competition	UPEC UTI89	100 µM	87%
CC(C)(C)OC(=O)NCCCNC(=O)c1cc2c(=O)[nH]c3ccccc3c2s1	Cyclin-dependent kinase 5, with p25 (CDK5, Homo sapiens, UniProt Q00535)	–	–	50 µM, added: ATP 30 µM	13.1%
Nc1ccccc1NC(=O)c1ccc(Nc2nccc(-c3cn(C4CCCC4)nn3)n2)cc1	CDK6 with cyclin D3	enzyme activity, inhibitor, TR-FRET	–	5 µM	3.2%
C[C@@H](N)C1CCN(S(=O)(=O)c2cccc3cnccc23)CC1	Protein kinase C epsilon type (PRKCE, Homo sapiens, UniProt Q02156)	cell-free assay, competition with immobilised ligand	–	10 µM	> 95%
CC(=O)OCCc1ccc(O)c(O)c1	alpha-glucosidase Saccharomyces cerevisiae	–	–	1000 µM, added: sucrose	< 10%
N[C@H]1CCCc2c1[nH]c1ccc(Cl)cc21	L-type calcium channel dihydropyridine site	radioligand binding	–	10 µM	48.9 ± 7.3%
C=CC(=O)N1C[C@H](C)N(c2nc(OC[C@@]34CCCN3C[C@H](F)C4)nc3c(F)c(-c4ccc(F)c5sc(N)c(C#N)c45)c(C(F)(F)F)cc23)C[C@H]1C	Homeodomain-interacting protein kinase 1 (HIPK1, Homo sapiens, UniProt Q86Z02)	binding, KINOMEscan	–	1 µM	86%
CC(C)Cn1cc(-c2nc(Nc3ccc(OCCCCCCC(=O)NO)cc3)ncc2F)nn1	CDK6 with cyclin D3	enzyme activity, inhibitor, TR-FRET	–	50 nM	4.99%
CCCCc1ccc(N2C(=O)/C(=N\NC(=N)N)c3cc([N+](=O)[O-])ccc32)cc1	mrcB	enzyme activity, inhibitor, HPLC	–	50 µM	0%
Nc1ccccc1NC(=O)c1ccc(Nc2nccc(-c3cn(C4CCCCC4)nn3)n2)cc1	CDK6 with cyclin D3	enzyme activity, inhibitor, TR-FRET	–	50 nM	0.75%
O=[N+]([O-])c1ccc(Cn2cc(Cn3cc(CO)nn3)nn2)cc1	Pleckstrin homology domain-containing family A member 1, PH domain (Homo sapiens, UniProt Q9HB21)	PI(3,4)P2 binding, competitive SPR	–	5 µM, PH domain 500 nM	21 ± 2%
COc1cc(C(=O)NC2CCC(N3CCN(CC4CCC5(CCCC5)C4)CC3)CC2)c(F)cc1Nc1ncc2c(n1)N(C1CCCC1(F)F)CC(F)(F)C(=O)N2C (centres unmarked)	Tyrosine-protein kinase ABL1 (ABL1, Homo sapiens, UniProt P00519)	cell-free assay, TR-FRET	–	10 µM	0.7%
CCOCn1cc(F)c(=O)n(C(=O)c2cccc(C(=O)Oc3cc(OC(=O)c4cc(OC(=O)CC)nc(OC(=O)CC)c4)c(Cl)cn3)c2)c1=O	Dihydropyrimidine dehydrogenase [NADP(+)] (Dpyd, Rattus norvegicus, UniProt O89000)	5-FU degradation, inhibitor	heat-denatured rat liver extract	concentration not given	no inhibition
O=C(CCCCCCOc1ccc(Nc2ncc(F)c(-c3cn(C4CCCCC4)nn3)n2)cc1)NO	CDK6 with cyclin D3	enzyme activity, inhibitor, TR-FRET	–	50 nM	2.86%
CN(C1COC1)C(C)(C)/C=C(\C#N)C(=O)N1CCC[C@H]1Cn1nc(-c2ccc(Oc3ccccc3)cc2F)c2c(N)ncnc21	Tyrosine-protein kinase Tec (TEC, Homo sapiens, UniProt P42680)	–	–	1 µM, mean	> 90%
OC[C@H]1O[C@@H](Oc2ccc3ccccc3c2)[C@H](O)[C@@H](O)[C@H]1O	Adhesin FmlH lectin domain	binding to desialylated mucin, ELISA competition	UPEC UTI89	100 µM	79%
CC(C)Oc1cccc(NC(=O)CCCN2C(=O)c3ccccc3C2=O)c1	Indole-3-acetic acid-amido synthetase GH3.15 (GH3.15, Arabidopsis thaliana, UniProt Q8GZ29)	IBA-Gln formation, inhibitor	–	concentration not given	no inhibition
CSCC[C@H](N)C(=O)N[C@@H](CC(C)C)C(=O)N[C@@H](Cc1ccccc1)C(=O)N[C@@H](CO)C(=O)NCC(=O)N[C@@H](CCC(N)=O)C(=O)N[C@H](C(=O)N[C@@H](CC(C)C)C(=O)O)C(C)C	Angiotensin-converting enzyme (ACE, Homo sapiens, UniProt P12821)	enzyme activity, inhibitor, HPLC	–	1330 µg/mL	72.2%
CCCCN1C(=O)/C(=N\NC(=N)N)c2cc(C)ccc21	mrcB	enzyme activity, inhibitor, HPLC	–	50 µM	4%
CC(C)c1ccc(C(=O)Nc2ccc(CN)cc2)c(O)c1	Suppressor of tumorigenicity 14 protein (ST14, Homo sapiens, UniProt Q9Y5Y6)	enzyme activity, inhibitor	–	10 µM	21.2%

Some of these lines once more:
SMILES	target	assay	system	setting	inhibition
C[C@@H](N)C1CCN(S(=O)(=O)c2cccc3cnccc23)CC1	Protein kinase C epsilon type (PRKCE, Homo sapiens, UniProt Q02156)	cell-free assay, competition with immobilised ligand	–	10 µM	> 95%
CC(C)c1ccc(C(=O)Nc2ccc(CN)cc2)c(O)c1	Suppressor of tumorigenicity 14 protein (ST14, Homo sapiens, UniProt Q9Y5Y6)	enzyme activity, inhibitor	–	10 µM	21.2%
CC(C)Cn1cc(-c2nc(Nc3ccc(OCCCCCCC(=O)NO)cc3)ncc2F)nn1	CDK6 with cyclin D3	enzyme activity, inhibitor, TR-FRET	–	50 nM	4.99%
